Assay results of several laboratories.
A part holds a random share of what one study measured. Several values in a cell are separate wells, animals, samples, runs or records.
UniProt Q8TBX8, sequence (whole entry, looked up): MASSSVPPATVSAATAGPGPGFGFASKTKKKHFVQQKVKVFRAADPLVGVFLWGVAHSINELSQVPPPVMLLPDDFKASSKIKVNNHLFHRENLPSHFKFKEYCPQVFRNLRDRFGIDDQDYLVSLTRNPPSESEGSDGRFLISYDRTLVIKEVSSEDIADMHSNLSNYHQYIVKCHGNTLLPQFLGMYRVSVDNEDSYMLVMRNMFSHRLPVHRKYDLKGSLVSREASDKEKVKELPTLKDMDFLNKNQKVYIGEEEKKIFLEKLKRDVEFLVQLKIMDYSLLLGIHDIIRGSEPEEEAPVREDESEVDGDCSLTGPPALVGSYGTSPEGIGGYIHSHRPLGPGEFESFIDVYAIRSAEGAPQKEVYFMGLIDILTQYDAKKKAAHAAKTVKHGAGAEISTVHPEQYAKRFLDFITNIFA
UniProt Q8IU85, sequence (whole entry, looked up): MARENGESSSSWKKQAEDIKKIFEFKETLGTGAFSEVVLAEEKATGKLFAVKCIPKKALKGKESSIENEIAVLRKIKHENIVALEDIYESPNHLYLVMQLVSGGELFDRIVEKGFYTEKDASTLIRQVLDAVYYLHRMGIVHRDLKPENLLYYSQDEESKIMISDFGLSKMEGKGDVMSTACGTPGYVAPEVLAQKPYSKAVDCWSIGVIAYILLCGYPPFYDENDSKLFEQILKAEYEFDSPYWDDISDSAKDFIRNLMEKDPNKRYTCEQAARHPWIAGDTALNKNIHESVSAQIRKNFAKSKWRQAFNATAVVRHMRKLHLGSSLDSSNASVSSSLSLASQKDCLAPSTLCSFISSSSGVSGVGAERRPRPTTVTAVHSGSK
UniProt Q8IYT8, sequence (whole entry, looked up): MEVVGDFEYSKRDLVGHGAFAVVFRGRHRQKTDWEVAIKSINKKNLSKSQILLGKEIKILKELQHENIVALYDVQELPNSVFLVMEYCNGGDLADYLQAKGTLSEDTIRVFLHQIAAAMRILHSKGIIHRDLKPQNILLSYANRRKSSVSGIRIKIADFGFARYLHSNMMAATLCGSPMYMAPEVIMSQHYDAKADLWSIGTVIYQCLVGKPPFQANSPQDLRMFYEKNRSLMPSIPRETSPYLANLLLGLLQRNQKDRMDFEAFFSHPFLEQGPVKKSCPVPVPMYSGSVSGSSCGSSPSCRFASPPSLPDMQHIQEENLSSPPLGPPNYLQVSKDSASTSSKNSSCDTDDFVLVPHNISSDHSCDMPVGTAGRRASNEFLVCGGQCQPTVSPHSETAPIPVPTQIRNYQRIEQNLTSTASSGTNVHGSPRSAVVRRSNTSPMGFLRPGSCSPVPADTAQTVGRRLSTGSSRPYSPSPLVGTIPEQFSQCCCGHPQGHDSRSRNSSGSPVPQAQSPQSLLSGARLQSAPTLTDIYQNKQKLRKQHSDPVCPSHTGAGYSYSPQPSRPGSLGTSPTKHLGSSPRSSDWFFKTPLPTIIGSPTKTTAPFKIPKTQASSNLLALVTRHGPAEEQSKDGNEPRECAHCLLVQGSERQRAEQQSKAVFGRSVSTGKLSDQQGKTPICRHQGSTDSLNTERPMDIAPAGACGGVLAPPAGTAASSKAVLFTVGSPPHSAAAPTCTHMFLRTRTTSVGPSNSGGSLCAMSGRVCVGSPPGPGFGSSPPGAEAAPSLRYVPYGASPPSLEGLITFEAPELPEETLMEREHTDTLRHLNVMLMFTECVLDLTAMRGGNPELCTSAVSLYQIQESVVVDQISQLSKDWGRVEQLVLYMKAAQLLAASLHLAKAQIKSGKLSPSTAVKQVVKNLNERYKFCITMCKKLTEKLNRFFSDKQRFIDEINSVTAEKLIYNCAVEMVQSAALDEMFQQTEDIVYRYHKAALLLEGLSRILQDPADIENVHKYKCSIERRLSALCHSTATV
UniProt Q9UEE5, sequence (whole entry, looked up): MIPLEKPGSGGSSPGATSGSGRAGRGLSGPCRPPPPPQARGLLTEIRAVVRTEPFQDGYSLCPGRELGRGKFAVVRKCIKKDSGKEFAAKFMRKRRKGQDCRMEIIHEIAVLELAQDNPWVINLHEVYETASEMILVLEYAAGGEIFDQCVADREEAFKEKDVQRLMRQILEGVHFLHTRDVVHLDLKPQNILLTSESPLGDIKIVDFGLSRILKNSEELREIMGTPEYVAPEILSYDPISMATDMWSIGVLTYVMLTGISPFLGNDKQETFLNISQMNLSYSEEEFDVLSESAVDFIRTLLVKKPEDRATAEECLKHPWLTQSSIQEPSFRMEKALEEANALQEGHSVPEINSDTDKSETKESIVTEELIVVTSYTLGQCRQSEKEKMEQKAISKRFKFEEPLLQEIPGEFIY
UniProt P42685, sequence (whole entry, looked up): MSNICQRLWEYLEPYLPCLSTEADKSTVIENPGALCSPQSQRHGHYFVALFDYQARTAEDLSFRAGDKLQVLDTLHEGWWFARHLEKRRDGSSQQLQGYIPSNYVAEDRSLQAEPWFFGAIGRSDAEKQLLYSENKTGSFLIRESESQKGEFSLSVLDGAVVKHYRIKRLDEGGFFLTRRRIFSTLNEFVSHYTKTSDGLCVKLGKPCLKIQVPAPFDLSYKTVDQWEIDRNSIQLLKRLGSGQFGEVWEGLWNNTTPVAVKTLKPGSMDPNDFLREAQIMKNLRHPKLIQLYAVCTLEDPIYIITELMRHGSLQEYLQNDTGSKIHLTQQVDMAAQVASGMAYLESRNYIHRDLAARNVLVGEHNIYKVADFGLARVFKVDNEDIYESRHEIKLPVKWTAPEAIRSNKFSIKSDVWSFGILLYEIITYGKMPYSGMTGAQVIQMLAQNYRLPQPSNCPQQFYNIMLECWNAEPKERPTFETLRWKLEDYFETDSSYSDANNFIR
UniProt P45983, sequence (whole entry, looked up): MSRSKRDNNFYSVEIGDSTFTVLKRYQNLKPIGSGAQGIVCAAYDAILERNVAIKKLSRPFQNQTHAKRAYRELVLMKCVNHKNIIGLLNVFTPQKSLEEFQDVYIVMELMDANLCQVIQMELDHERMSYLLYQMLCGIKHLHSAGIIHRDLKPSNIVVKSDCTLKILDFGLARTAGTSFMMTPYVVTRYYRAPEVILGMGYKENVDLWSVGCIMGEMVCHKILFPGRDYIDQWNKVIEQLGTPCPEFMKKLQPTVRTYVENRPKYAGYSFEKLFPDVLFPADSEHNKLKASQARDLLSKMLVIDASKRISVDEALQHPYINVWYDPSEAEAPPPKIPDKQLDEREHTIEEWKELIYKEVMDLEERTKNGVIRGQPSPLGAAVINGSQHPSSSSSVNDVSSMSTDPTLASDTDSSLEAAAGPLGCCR

Block 1 — concentration: 1 µM
Structure (SMILES): CO[C@H]1CC[C@H](CNc2ccc(S(=O)(=O)NC(=O)c3ccc(N4CCN(CC5=C(c6ccc(Cl)cc6)CC(C)(C)CC5)CC4)cc3Oc3cnc4[nH]ccc4c3)cc2[N+](=O)[O-])CC1
target	effect on	technique	remaining binding [%]
ULK2 (Homo sapiens, UniProt Q8IYT8)	cell-free assay	competition with immobilised ligand	100
NTRK3 (Homo sapiens, UniProt Q16288)	cell-free assay	competition with immobilised ligand	100
FGR (Homo sapiens, UniProt P09769)	cell-free assay	competition with immobilised ligand	100
STK17A (Homo sapiens, UniProt Q9UEE5)	cell-free assay	competition with immobilised ligand	88
CAMK1D (Homo sapiens, UniProt Q8IU85)	cell-free assay	competition with immobilised ligand	80
FRK (Homo sapiens, UniProt P42685)	cell-free assay	competition with immobilised ligand	100
STK32B (Homo sapiens, UniProt Q9NY57)	cell-free assay	competition with immobilised ligand	100
CAMK1G (Homo sapiens, UniProt Q96NX5)	cell-free assay	competition with immobilised ligand	73
EIF2AK1 (Homo sapiens, UniProt Q9BQI3)	cell-free assay	competition with immobilised ligand	100
CDC42BPG (Homo sapiens, UniProt Q6DT37)	–	competition binding	75
GRK1 (Homo sapiens, UniProt Q15835)	cell-free assay	competition with immobilised ligand	72
MAPK8 (Homo sapiens, UniProt P45983)	cell-free assay	competition with immobilised ligand	82
Tyrosine-protein kinase ABL1, phosphorylated (ABL1, Homo sapiens, UniProt P00519, H396P)	cell-free assay	competition with immobilised ligand	94
PLK4 (Homo sapiens, UniProt O00444)	cell-free assay	competition with immobilised ligand	100
PIP4K2C (Homo sapiens, UniProt Q8TBX8)	cell-free assay	competition with immobilised ligand	85

Block 2
SMILES: Cc1cc2c(C(N)=O)c(N)n(-c3c(C)ccc(O)c3C)c2nc1C
SRC: Proto-oncogene tyrosine-protein kinase Src (SRC, Homo sapiens, UniProt P12931)
tested on	test	conditions	inhibition
NCI-H1568	cell growth	370.37 nM	17.4%
NCI-H1568	cell growth	41.15 nM	8.46%
SRC	kinase activity, inhibitor, HTRF	0.04115 µM	83.5%
SRC	kinase activity, inhibitor, HTRF	0.0005081 µM, 0.5081 nM	12.2%
NCI-H1568	cell proliferation	1.524 nM	4.74% and 4.51% and 1.66%
NCI-H1648	cell proliferation	30000 nM	96.8%
NCI-H1568	cell proliferation	3333.33 nM	73.3% and 74.5%
HCC1569	automated immunoblotting, item: CDK1 phospho-Thr14	concentration not given, 2 h after washout	24.2%
SRC	enzyme activity, inhibitor, TR-FRET	41.15 nM	81.7%
SW1463	cell proliferation	4.57 nM	6.49% and -0.25%
HCC1569	automated capillary immunoblot, item: CDK1 phospho-Thr14	0.46 nM	7.11%

Block 3 — effect on: enzyme activity; mode: inhibitor; concentration: 10 µM
Target: Calcium/calmodulin-dependent protein kinase type II subunit alpha (CAMK2A, Homo sapiens, UniProt Q9UQM7)
UniProt Q9UQM7, sequence (whole entry, looked up): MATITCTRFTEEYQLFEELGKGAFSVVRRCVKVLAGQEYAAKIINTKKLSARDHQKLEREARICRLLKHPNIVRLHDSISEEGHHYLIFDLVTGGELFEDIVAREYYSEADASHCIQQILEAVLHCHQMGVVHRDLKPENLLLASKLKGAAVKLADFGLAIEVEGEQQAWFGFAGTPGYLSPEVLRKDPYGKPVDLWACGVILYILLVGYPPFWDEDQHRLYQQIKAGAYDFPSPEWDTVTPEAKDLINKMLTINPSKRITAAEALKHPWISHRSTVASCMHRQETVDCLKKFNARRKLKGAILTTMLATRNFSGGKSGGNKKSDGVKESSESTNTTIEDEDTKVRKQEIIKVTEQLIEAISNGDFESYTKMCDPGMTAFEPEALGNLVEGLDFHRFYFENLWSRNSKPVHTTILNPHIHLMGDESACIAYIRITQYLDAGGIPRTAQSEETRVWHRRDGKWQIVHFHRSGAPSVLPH
SMILES	inhibition
CCOC(=O)[C@H](CCc1ccccc1)N[C@@H](C)C(=O)N1Cc2cc(OC)c(OC)cc2C[C@H]1C(=O)O	4%
CC(=O)OC/C=C(\C)CCC=C(C)C	-9%
C[C@@H]1CC[C@@]2(OC1)O[C@H]1C[C@H]3[C@@H]4CC=C5C[C@@H](O)C[C@@H](O)[C@]5(C)[C@H]4CC[C@]3(C)[C@H]1[C@@H]2C	-3%
COc1cc(-c2coc3cc(O[C@@H]4O[C@H](CO)[C@@H](O)[C@H](O)[C@H]4O)c(OC)c(O)c3c2=O)cc(O)c1OC	-55%
COc1cc(/C=C/c2ccc(O)c(O)c2)cc(OC)c1	5%
COc1ccc2cc1Oc1ccc(cc1)C[C@H]1c3cc(c(OC)cc3CCN1C)Oc1c(O)c(OC)cc3c1[C@H](C2)N(C)CC3	-11%
C[C@H](N[C@@H](CCc1ccccc1)C(=O)O)C(=O)N1CCC[C@H]1C(=O)O	-6%
C[C@]12C=CC(=O)C=C1CC[C@@H]1[C@@H]2[C@@H](O)C[C@@]2(C)[C@H]1CC[C@]2(O)C(=O)COC(=O)CCC(=O)O	-8%
CO[C@H]1C[C@H](O[C@H]2[C@H](C)O[C@@H](O[C@@H]3/C(C)=C/C[C@@H]4C[C@@H](C[C@]5(C=C[C@H](C)[C@@H](C6CCCCC6)O5)O4)OC(=O)[C@@H]4C=C(C)[C@@H](O)[C@H]5OC/C(=C\C=C\[C@@H]3C)[C@]54O)C[C@@H]2OC)O[C@@H](C)[C@@H]1O	-8%
CC(C)(O)[C@H]1CC[C@@](C)([C@H]2[C@@H](O)C[C@@]3(C)[C@@H]4C[C@H](O)[C@H]5C(C)(C)[C@@H](O)CC[C@@]56C[C@@]46CC[C@]23C)O1	-18%
C=C[C@](C)(O)CC[C@@H]1[C@@]2(C)CCCC(C)(C)[C@@H]2CC[C@@]1(C)O	-3%

Block 4 — effect on: RNA clamping; technique: fluorescence polarization; concentration: concentration not given; with: FAM-labelled poly r(AG)8 RNA
Target: Eukaryotic initiation factor 4A-III (Homo sapiens, UniProt P38919)
UniProt P38919, sequence (whole entry, looked up): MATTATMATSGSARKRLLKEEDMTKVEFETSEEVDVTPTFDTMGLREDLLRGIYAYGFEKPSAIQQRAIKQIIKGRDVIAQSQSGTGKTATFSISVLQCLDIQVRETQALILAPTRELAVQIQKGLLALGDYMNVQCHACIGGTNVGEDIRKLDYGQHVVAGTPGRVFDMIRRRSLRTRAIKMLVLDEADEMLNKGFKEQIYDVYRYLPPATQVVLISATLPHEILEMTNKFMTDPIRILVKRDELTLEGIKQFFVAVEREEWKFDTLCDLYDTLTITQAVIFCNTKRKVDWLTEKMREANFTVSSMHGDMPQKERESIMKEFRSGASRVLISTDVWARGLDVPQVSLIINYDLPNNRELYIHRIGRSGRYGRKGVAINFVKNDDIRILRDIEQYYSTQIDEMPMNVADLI
Compound	fluorescence polarization change [mP]
COC(=O)[C@@H]1[C@@H](c2ccccc2)[C@]2(c3ccc(OC)cc3)Oc3cc(OC)cc(OC)c3[C@@]23OC(c2ccc(OCc4ccccc4)cc2)=N[C@@]13O	4.9
COc1ccc([C@]23Oc4cc(OC)cc(OC)c4[C@](O)(C2O)[C@H](c2c(F)c(F)c(F)c(F)c2F)[C@H]3c2ccccc2)cc1 (some centres unmarked)	2.7
COc1ccc([C@@]23Oc4cc(OC)cc(OC)c4[C@]2(O)[C@H](O)[C@H](C(=O)N(C)C)[C@H]3c2ccccc2)cc1	23
COc1ccc([C@H]2[C@H](C(=O)N(C)C)[C@@H](O)[C@@]3(O)c4c(OC)cc(OC)cc4O[C@@]23c2ccc(OC)cc2)cc1	2.1
COc1ccc([C@@]23Oc4cc(OC)cc(OC)c4[C@]2(O)c2[nH]nc(O)c2[C@H]3c2ccccc2)cc1	24.7
COc1ccc([C@]23Oc4cc(OC)cc(OC)c4[C@](O)([C@H](C(=O)NCCCC(OC)OC)[C@H]2c2ccccc2)[C@H]3O)cc1	-0.9
COc1cc(OC)c2c(c1)O[C@@]1(c3ccc(Br)cc3)[C@H](c3ccccc3)c3c(nc(-c4ccccc4)[nH]c3=O)[C@@]21O	3.9

Excerpt of the above (block 1):
target	effect on	technique	remaining binding [%]
MAPK8 (Homo sapiens, UniProt P45983)	cell-free assay	competition with immobilised ligand	82
Tyrosine-protein kinase ABL1, phosphorylated (ABL1, Homo sapiens, UniProt P00519, H396P)	cell-free assay	competition with immobilised ligand	94
PLK4 (Homo sapiens, UniProt O00444)	cell-free assay	competition with immobilised ligand	100
